Assay results from different studies.
Protocols differ between the studies behind these lines.
RPS6KA3 N-terminal kinase domain: Ribosomal protein S6 kinase alpha-3, N-terminal kinase domain (RPS6KA3, Homo sapiens, UniProt P51812)
Sequence of UniProt P51812 (whole entry, looked up): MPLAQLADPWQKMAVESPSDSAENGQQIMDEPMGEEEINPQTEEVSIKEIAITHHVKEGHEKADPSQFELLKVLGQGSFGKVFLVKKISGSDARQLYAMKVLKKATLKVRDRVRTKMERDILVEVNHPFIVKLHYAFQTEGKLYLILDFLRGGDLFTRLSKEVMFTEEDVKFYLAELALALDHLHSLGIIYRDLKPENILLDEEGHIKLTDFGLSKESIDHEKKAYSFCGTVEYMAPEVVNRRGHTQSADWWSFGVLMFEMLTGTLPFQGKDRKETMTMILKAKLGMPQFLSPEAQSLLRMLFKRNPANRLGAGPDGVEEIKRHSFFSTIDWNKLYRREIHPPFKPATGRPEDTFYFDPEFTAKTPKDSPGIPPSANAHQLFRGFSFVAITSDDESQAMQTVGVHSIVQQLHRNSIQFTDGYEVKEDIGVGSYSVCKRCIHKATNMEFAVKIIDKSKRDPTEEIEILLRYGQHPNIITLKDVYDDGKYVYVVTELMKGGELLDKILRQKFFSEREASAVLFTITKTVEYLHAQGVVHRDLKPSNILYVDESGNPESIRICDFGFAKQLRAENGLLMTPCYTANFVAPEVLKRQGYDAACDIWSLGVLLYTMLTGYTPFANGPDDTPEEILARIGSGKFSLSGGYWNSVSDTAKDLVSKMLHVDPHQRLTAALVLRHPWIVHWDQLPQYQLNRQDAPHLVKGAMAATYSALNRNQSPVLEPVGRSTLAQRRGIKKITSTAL
RPS6KA3: Ribosomal protein S6 kinase alpha-3 (RPS6KA3, Homo sapiens, UniProt P51812)

`C=CC(=O)Nc1cc(-c2nn(C3CCC(N4CCN(C(C)=O)CC4)CC3)c3ncnc(N)c23)ccc1Oc1ccccc1` (stereo not drawn) has an inhibition of -4.6% (RPS6KA3 N-terminal kinase domain; inhibitor, KiNativ profiling; biochemical; 2 µM).
The remaining binding of `Nc1ccc(/C=C/C(=O)N2CCc3c(oc4c(-c5ccc(F)cc5)cc(-c5ccc(C(=O)N6CCC(F)(F)CC6)cn5)cc34)C2)cn1` is reported as 100% (RPS6KA3 N-terminal kinase domain; binding, competition with immobilised ligand; 1 µM).
`O=C(N[C@@H]1c2ccccc2C[C@H]1N1CCCC1)c1ccc(-c2ccnc3[nH]ccc23)nc1` has a remaining binding of 26% (RPS6KA3 N-terminal kinase domain; binding, competition with immobilised ligand; 3 µM).
`O=C1NC(=O)c2c1c1cc(F)c[n+]3c1c1c2c2cc(O)ccc2[n]1[Ru-4]312([N]=C=S)[S+]3CC[S+]1CC[S+]2CC3` (stereo not drawn) has a remaining activity of 6% (RPS6KA3; enzyme activity; 100 nM, human enzyme, added: 10 µM ATP; relative to: untreated).
`CC(C)[C@H]1NC(=O)C[C@H]2/C=C/CCSSC[C@@H](NC1=O)C(=O)N[C@H](Cc1cccc3ccccc13)C(=O)NCC(=O)O2` gave an inhibition of 1.4% (RPS6KA3; enzyme activity, inhibitor; 10 µM).
With `CS(C)(=O)=Nc1ccc(-c2ccc(-c3nc4cc(O[C@@H]5CO[C@H]6[C@@H]5OC[C@H]6O)[nH]c4cc3F)cc2)cc1` the inhibition was -3% (RPS6KA3; enzyme activity, inhibitor; 10 µM).
`CCOC(=O)[C@@H]1Cc2c(cc([N+](=O)[O-])cc2[N+](=O)[O-])[C@H](O)[C@]12C(=O)Nc1ccc(Br)cc12` has a remaining binding of 84% (RPS6KA3; binding, competition with immobilised ligand; 0.1 µM).
`C[C@H](NCc1ccc(-c2ccc(C(F)(F)F)cc2)cc1)C(N)=O` has an inhibition of 0% (RPS6KA3; cell-free assay, competition with immobilised ligand; 1 µM).
With `CN(C)[C@H]1C[C@@]23CC[C@@]4(O2)C(=CC[C@]2(C)[C@@H](c5ccc6ccncc6c5)CC[C@H]24)C=C3[C@@H](O)[C@@H]1O` the inhibition was -7.8% (Ribosomal protein S6 kinase alpha-3, C-terminal kinase domain (RPS6KA3, Homo sapiens, UniProt P51812); ATP probe labelling, inhibitor, KiNativ profiling; 0.1 µM).
